Measurements pooled from the literature.
Lines come from different studies, so protocols differ. Values joined by “and” are separate records of one study, mostly repeats; a detail may differ. ± marks the error that the study gave.

Cc1cc(C)n(CCN(CCN)CCCCCCNC(=O)[C@@H](N)Cc2c[nH]cn2)n1.[99Tc+].[C-]#[O+].[C-]#[O+].[C-]#[O+] — tissue uptake (BALB/c nude mice, A549 xenograft, intestine; intravenous, 15 min): 11.4 ± 1.21 %IA/g
COc1ccc(Nc2nc(Nc3ccc(OCCOCCOCC[18F])cc3)ncc2Br)cc1 — tissue uptake (ICR mice, S180 tumour, stomach; intravenous, 370 kBq, 5 min): 1.54 ± 0.08 %ID
CCCC[C@H](NC(=O)CCCCCCCNC(=O)CN1CCN(CC(=O)O)CCN(CC(=O)O)CC1)C(=O)N[C@H]1CC(=O)NCCCC[C@@H](C(N)=O)NC(=O)[C@H](Cc2c[nH]c3ccccc23)NC(=O)[C@H](CCCNC(=N)N)NC(=O)[C@@H](Cc2ccccc2)NC(=O)[C@H](Cc2c[nH]cn2)NC1=O [fluorine-18 labelled] — tissue uptake (C57 mice B16-F10 melanoma, skin; intravenous, 0.37 MBq, 2 h): 1.09 ± 0.33 %ID/g
O=C(NCC1OC2CCC=CCCC2O1)c1ccc([18F])nc1 (stereo not drawn) — tissue uptake (healthy female BALB/c nude mice, liver; intravenous, 7.4 MBq per mouse, 120 min): 0.9 ± 0.2 %ID/g
N#C[C@@H]1CCCN1C(=O)CNC(=O)c1ccnc2ccc(OCCCN3CCN(C(=O)CCc4ccc5c(c4)CN4CCN(Cc6cc(CCC(=O)O)ccc6O)CC(=O)[O][Al-]([18F])([O]C(=O)C4)[O]5)CC3)cc12 (stereo partly drawn) — tissue uptake (BALB/c nude mice, U-87 MG tumour, gallbladder; 120 min post-injection): 14.7 ± 8.32 %ID/g
Cc1cc(C)n(CCN(CCN)CCCCCCNC(=O)[C@@H](N)Cc2c[nH]c3ccccc23)n1.[99Tc+].[C-]#[O+].[C-]#[O+].[C-]#[O+] — tissue uptake (BALB/c nude mice, A549 xenograft, pancreas; intravenous, 15 min): 1 ± 0.09 %IA/g
O=C([O-])CN1CCN(CC(=O)[O-])CCN(CC(=O)NC[C@H]2CC[C@H](C(=O)N[C@H](Cc3cnc4ccccc4c3)C(=O)NCCCC[C@H](NC(=O)N[C@@H](CCC(=O)O)C(=O)O)C(=O)O)CC2)CCN(CC(=O)[O-])CC1.[64Cu+2] — tissue uptake (ex vivo gamma counting; 22Rv1 tumour-bearing mice, lung; intravenous, 0.74 MBq, 1 h post-injection): 7.33 %ID/g
COc1ccc2c(c1)C(C)(C)C(/C=C/C1=C(Oc3ccc(C(=O)NCCCCOc4cc(CN(Cc5ccccn5)Cc5ccccn5)cc(CN(Cc5ccccn5)Cc5ccccn5)c4)cc3)C(=C/C=C3/N(CCCCS(=O)(=O)[O-])c4ccc(OC)cc4C3(C)C)CCC1)=[N+]2CCCCS(=O)(=O)[O-].O=[N+]([O-])[O-].O=[N+]([O-])[O-].[99Tc+].[C-]#[O+].[C-]#[O+].[C-]#[O+].[Zn+2] — tissue uptake (healthy BALB/c mice, heart; 12 h): 1.43 %ID/g and 1.18 %ID/g and 1.28 %ID/g and 1.42 %ID/g
CCCC[C@H](NC(=O)COCCOCCNC(=O)CN1CCN(CC(=O)O)CCN(CC(=O)O)CC1)C(=O)N[C@H]1CC(=O)NCCCC[C@@H](C(N)=O)NC(=O)[C@H](Cc2c[nH]c3ccccc23)NC(=O)[C@H](CCCNC(=N)N)NC(=O)[C@@H](Cc2ccccc2)NC(=O)[C@H](Cc2c[nH]cn2)NC1=O [fluorine-18 labelled] — tissue uptake (C57 mice, B16/F10 melanoma, kidneys; intravenous, 1 h, added: NDP-MSH 10 µg): 6.96 ± 1.19 %ID/g
CCCC[C@H](NC(=O)CNC(=O)CNC(=O)[C@H](CCCCNC(=O)[C@H](CCN)NC(=O)C(C)c1ccc(CC(C)C)cc1)NC(=O)CN1CCN(CC(=O)O)CCN(CC(=O)O)CCN(CC(=O)O)CC1)C(=O)N[C@H]1CC(=O)NCCCC[C@@H](C(N)=O)NC(=O)[C@H](Cc2c[nH]c3ccccc23)NC(=O)[C@H](CCCNC(=N)N)NC(=O)[C@@H](Cc2ccccc2)NC(=O)[C@H](Cc2c[nH]cn2)NC1=O (stereo partly drawn) [lutetium-177 labelled] — tissue uptake (C57 mice, tumour-bearing, blood; 2 h): 0.19 ± 0.06 %ID/g
COc1ccc(Nc2nc(Nc3ccc(OCCOCC[18F])cc3)ncc2Br)cc1 — tissue uptake (ICR mice, S180 tumour-bearing, brain; intravenous, 370 kBq, 120 min): 1.83 ± 0.32 %ID/g
N#C[C@@H]1CCCN1C(=O)CNC(=O)c1ccnc2ccc(OCCCN3CCN(C(=O)CCc4ccc(O)c(CN5CCN6CC(=O)[O][Al-]([18F])([O]C(=O)C5)[O]c5ccc(CCC(=O)N7CCN(CCCOc8ccc9nccc(C(=O)NCC(=O)N%10CCC[C@H]%10C#N)c9c8)CC7)cc5C6)c4)CC3)cc12 (stereo partly drawn) — tissue uptake (BALB/c nude mice, U-87 MG xenograft, gallbladder; 1 h, blocked 60 min, added: DOTA-FAPI-04 40 nmol co-injected): 142 ± 37.6 %ID/g
CC(C)C[C@H](NC(=O)[C@@H](CCCCNC(=O)[C@@H](Cc1ccccc1)NC(=O)CCCCCCCNC(=O)CN1CCN(CC(=O)O)CCN(CC(=O)O)CCN(CC(=O)O)CC1)NC(=O)[C@H](Cc1ccc(O)cc1)NC(=O)[C@H](CO)NC(=O)[C@H](Cc1c[nH]c2ccccc12)NC(=O)[C@H](Cc1c[nH]cn1)NC(=O)[C@@H]1CCC(=O)N1)C(=O)N[C@@H](CCCNC(=N)N)C(=O)N1CCC[C@H]1C(=O)NCC(N)=O [indium-111 labelled] — tissue uptake (biodistribution; male athymic nude mice, DU-145 prostate cancer xenograft, muscle; intravenous, 0.037 MBq, 1 h post-injection): 0.27 ± 0.08 %ID/g
O=C(NCC1OC2CCC=CCCC2O1)c1ccc(COCCOCCOCC[18F])cc1 (stereo not drawn) — tissue uptake (healthy female BALB/c nude mice, muscle; intravenous, 7.4 MBq per mouse, 30 min): 2.2 ± 0.1 %ID/g
CCCC[C@H](NC(=O)CNC(=O)CNC(=O)[C@H](CCCCNC(=O)[C@H](CC(=O)O)NC(=O)C(C)c1ccc(CC(C)C)cc1)NC(=O)CN1CCN(CC(=O)O)CCN(CC(=O)O)CCN(CC(=O)O)CC1)C(=O)N[C@H]1CC(=O)NCCCC[C@@H](C(N)=O)NC(=O)[C@H](Cc2c[nH]c3ccccc23)NC(=O)[C@H](CCCNC(=N)N)NC(=O)[C@@H](Cc2ccccc2)NC(=O)[C@H](Cc2c[nH]cn2)NC1=O (stereo partly drawn) [lutetium-177 labelled] — tissue uptake (C57 mice, tumour-bearing, kidneys; 2 h): 11.3 ± 1.97 %ID/g

Excerpt of the above:
O=C(NCC1OC2CCC=CCCC2O1)c1ccc([18F])nc1 (stereo not drawn) — tissue uptake (healthy female BALB/c nude mice, liver; intravenous, 7.4 MBq per mouse, 120 min): 0.9 ± 0.2 %ID/g
CCCC[C@H](NC(=O)CNC(=O)CNC(=O)[C@H](CCCCNC(=O)[C@H](CC(=O)O)NC(=O)C(C)c1ccc(CC(C)C)cc1)NC(=O)CN1CCN(CC(=O)O)CCN(CC(=O)O)CCN(CC(=O)O)CC1)C(=O)N[C@H]1CC(=O)NCCCC[C@@H](C(N)=O)NC(=O)[C@H](Cc2c[nH]c3ccccc23)NC(=O)[C@H](CCCNC(=N)N)NC(=O)[C@@H](Cc2ccccc2)NC(=O)[C@H](Cc2c[nH]cn2)NC1=O (stereo partly drawn) [lutetium-177 labelled] — tissue uptake (C57 mice, tumour-bearing, kidneys; 2 h): 11.3 ± 1.97 %ID/g
